Assay results gathered from unrelated publications.
Values joined by “and” are separate records of one study, mostly repeats; a detail may differ. ± marks the error that the study gave.
U2AF2: U2AF2 148-342 (Homo sapiens, UniProt P26368)
Chain of UniProt P26368 (whole entry, looked up): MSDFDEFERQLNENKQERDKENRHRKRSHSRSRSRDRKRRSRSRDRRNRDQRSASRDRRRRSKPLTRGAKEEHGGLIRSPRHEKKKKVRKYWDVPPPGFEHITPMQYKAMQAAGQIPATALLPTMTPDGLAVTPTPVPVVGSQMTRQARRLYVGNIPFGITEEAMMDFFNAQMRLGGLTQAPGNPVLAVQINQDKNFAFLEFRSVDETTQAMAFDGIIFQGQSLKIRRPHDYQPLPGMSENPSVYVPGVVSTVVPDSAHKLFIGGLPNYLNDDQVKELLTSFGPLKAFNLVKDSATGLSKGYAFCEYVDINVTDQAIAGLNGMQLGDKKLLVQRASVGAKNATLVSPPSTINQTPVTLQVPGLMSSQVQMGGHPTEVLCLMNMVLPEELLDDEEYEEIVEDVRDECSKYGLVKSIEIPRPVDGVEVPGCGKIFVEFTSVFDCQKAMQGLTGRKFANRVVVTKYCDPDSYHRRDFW
SPT15 full length assumed: SPT15 full length assumed (Saccharomyces cerevisiae, UniProt P13393)
Chain of UniProt P13393 (whole entry, looked up): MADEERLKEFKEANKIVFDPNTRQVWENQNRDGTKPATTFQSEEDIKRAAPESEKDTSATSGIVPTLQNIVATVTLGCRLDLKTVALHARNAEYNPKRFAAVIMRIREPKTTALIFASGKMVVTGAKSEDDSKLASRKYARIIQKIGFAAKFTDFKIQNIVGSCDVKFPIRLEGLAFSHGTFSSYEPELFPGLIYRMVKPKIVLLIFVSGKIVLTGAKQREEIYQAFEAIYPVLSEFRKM
B1: mortalin (human); sequence looked up; chain ASEAIKGAVVGIDLGTTNSCVAVMEGKQAKVLENAEGARTTPSVVAFTADGERLVGMPAKRQAVTNPNNTFYATKRLIGRRYDDPEVQKDIKNVPFKIVRASNGDAWVEAHGKLYSPSQIGAFVLMKMKETAENYLGHTAKNAVITVPAYFNDSQRQATKDAGQISGLNVLRVINEPTAAALAYGLDKSEDKVIAVYDLGGGTFDISILEIQKGVFEVKSTNGDTFLGGEDFDQALLRHIVKEFKRETGVDLTKDNMALQRVREAAEKAKCELSSSVQTDINLPYLTMDSSGPKHLNMKLTRAQFEGIVTDLIRRTIAPCQKAMQDAEVSKSDIGEVILVGGMTRMPKVQQTVQDLFGRAPSKAVNPDEAVAIGAAIQGGVLAGDVTDVLLLDVTPLSLGIETLGGVFTKLINRNTTIPTKKSQVFSTAADGQTQVEIKVCQGEREMAGDNKLLGQFTLIGIPPAPRGVPQIEVTFDIDANGIVHVSAKDKGTGREQQIVIQSSGGLSKDDIENMVKNAEKYAEEDRRKKERVEAVNMAEGIIHDTETKMEEFKDQLPADECNKLKEEISKMRELLARKDSETGENIRQAASSLQQASLKLFEMAYKKMASEREGSGSSGTGEQKEDQKEEKQ
B2: human aldolase A; sequence looked up; chain PYQYPALTPEQKKELSDIAHRIVAPGKGILAADESTGSIAKRLQSIGTENTEENRRFYRQLLLTADDRVNPCIGGVILFHETLYQKADDGRPFPQVIKSKGGVVGIKVDKGVVPLAGTNGETTTQGLDGLSERCAQYKKDGADFAKWRCVLKIGEHTPSALAIMENANVLARYASICQQNGIVPIVEPEILPDGDHDLKRCQYVTEKVLAAVYKALSDHHIYLEGTLLKPNMVTPGHACTQKFSHEEIAMATVTALRRTVPPAVTGITFLSGGQSEEEASINLNAINKCPLLKPWALTFSYGRALQASALKAWGGKKENLKAAQEEYVKRALANSLACQGKYTPSGQAGAAASESLFVSNHAY
B3: human RAB13; sequence looked up; chain MAKAYDHLFKLLLIGDSGVGKTCLIIRFAEDNFNNTYISTIGIDFKIRTVDIEGKKIKLQVWDTAGQERFKTITTAYYRGAMGIILVYDITDEKSFENIQNWMKSIKENASAGVERLLLGNKCDMEAKRKVQKEQADKLAREHGIRFFETSAKSSMNVDEAFSSLARDILLKSGGRRSGNGNKPPSTDLKTCDKKNTNKC
B4: human matrin-3; sequence looked up; chain SKSFQQSSLSRDSQGHGRDLSAAGIGLLAAATQSLSMPASLGRMNQGTARLASLMNLGMSSSLNQQGAHSALSSASTSSHNLQSIFNIGSRGPLPLSSQHRGDADQASNILASFGLSARDLDELSRYPEDKITPENLPQILLQLKRRRTEEGPTLSYGRDGRSATREPPYRVPRDDWEEKRHFRRDSFDDRGPSLNPVLDYDHGSRSQESGYYDRMDYEDDRLRDGERCRDDSFFGETSHNYHKFDSEYERMGRGPGPLQERSLFEKKRGAPPSSNIEDFHGLLPKGYPHLCSICDLPVHSNKEWSQHINGASHSRRCQLLLEIYPEWNPDNDTGHTMGDPFMLQQSTNPAPGILGPPPPSFHLGGPAVGPRGNLGAGNGNLQGPRHMQKGRVETSRVVHIMDFQRGKNLRYQLLQLVEPFGVISNHLILNKINEAFIEMATTEDAQAAVDYYTTTPALVFGKPVRVHLSQKYKRIKKPEGKPDQKFDQKQELGRVIHLSNLPHSGYSDSAVLKLAEPYGKIKNYILMRMKSQAFIEMETREDAMAMVDHCLKKALWFQGRCVKVDLSEKYKKLVLRIPNRGIDLLKKDKSRKRSYSPDGKESPSDKKSKTDGSQKTESSTEGKEQEEKSGEDGEKDTKDDQTEQEPNMLLESEDELLVDEEEAAALLESGSSVGDETDLANLGDVASDGKKEPSDKAVKKDGSASAAAKKKLKKVDKIEELDQENEAALENGIKNEENTEPGAESSENADDPNKDTSENADGQSDENKDDYTIPDEYRIGPYQPNVPVGIDYVIPKTGFYCKLCSLFYTNEEVAKNTHCSSLPHYQKLKKFLNKLAEERRQKKET
Chain of UniProt Q00535 (whole entry, looked up): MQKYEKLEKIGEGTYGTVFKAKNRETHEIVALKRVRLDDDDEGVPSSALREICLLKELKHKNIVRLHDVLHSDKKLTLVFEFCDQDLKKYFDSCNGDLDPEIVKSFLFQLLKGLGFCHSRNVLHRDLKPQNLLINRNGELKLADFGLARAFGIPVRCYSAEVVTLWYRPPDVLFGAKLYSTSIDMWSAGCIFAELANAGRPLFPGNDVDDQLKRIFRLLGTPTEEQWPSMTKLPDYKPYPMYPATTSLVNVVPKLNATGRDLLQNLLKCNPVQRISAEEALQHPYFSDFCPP

Substance	tested on	assay	system	setting	scale	measurement	value
B1 (mortalin)	CYB5R4 knockout human cells	PP4 interaction, 3xFLAG-PP4C IP-MS		concentration not given	relative to: CYB5R4 KO over parental	log2 fold change	0.32
UUAAUUCAU (ssRNA)	U2AF2	sequencing of bound RNA	RNA	motif only		Kd	7.26 µM
epoetin alfa	UT7/EPO	RT-qPCR, refers to: EGR2		concentration not given, 90 min, normalized to HPRT1	relative to: vehicle	mRNA level	8.5 fold
MTVCNASQRQAHAQATAVSL	LNCaP	phage binding	peptide		relative to: targeting over control phage	selectivity ratio	0.13 ± 0.06
QVDPIGLDF	Jurkat expressing engineered TCR	NFAT-eGFP reporter, fluorescence microscopy	peptide	concentration not given, HLA-A*01:01 on EL4 cells		GFP-positive cells	0.429%
TCCTGAAGGGGCACCCTAGCTTGGTCCTATCGTCGTCAAGTCAATCGGTCC (dsDNA; 5'-amino-C6 primer)	SPT15 full length assumed	array	double-stranded DNA, one strand shown	TBP alone		Kd	0.00324 ± 0.00024 µM
AUAAAAAUU (ssRNA)	U2AF2	sequencing of bound RNA	RNA	motif only		Kd	12.9 µM
heparin	PC-12 cells	inhibitor		100 µg/mL, with: HBGF-2		neurite outgrowth	inhibited
YIDPIHLLY	Jurkat expressing engineered TCR	NFAT-eGFP reporter, fluorescence microscopy	peptide	concentration not given, HLA-A*01:01 on EL4 cells		GFP-positive cells	0.429%
ATGTCACAGAAGCAAAGTACGAATCAGAATCAAAATCAAGTCAATCGGTCC (dsDNA; 5'-amino-C6 primer)	SPT15 full length assumed	array	double-stranded DNA, one strand shown	TBP alone		Kd	0.0125 ± 0.00048 µM
GTDPIPIGM	Jurkat expressing engineered TCR	NFAT-eGFP reporter, fluorescence microscopy	peptide	concentration not given, HLA-A*01:01 on EL4 cells		GFP-positive cells	0.4%
human RANBP2	CYB5R4 knockout human cells	PP4 interaction, 3xFLAG-PP4C IP-MS		concentration not given	relative to: CYB5R4 KO over parental	log2 fold change	-0.73
Triton X-100	HFF	cytotoxicity				IC50	1600 nM
ESDPIEDEY	Jurkat NFAT-eGFP expressing engineered TCR	NFAT reporter gene	peptide	concentration not given, HLA-A*01:01 presentation		GFP-positive cells	9.05%
human FHL2	CYB5R4 knockout human cells	PP4 interaction, 3xFLAG-PP4C IP-MS		concentration not given	relative to: CYB5R4 KO over parental	log2 fold change	4
YVDPIPLGF	Jurkat expressing engineered TCR	NFAT-eGFP reporter, fluorescence microscopy	peptide	concentration not given, HLA-A*01:01 on EL4 cells		GFP-positive cells	0.59%
B2 (human aldolase A)	CYB5R4 knockout human cells	PP4 interaction, 3xFLAG-PP4C IP-MS		concentration not given	relative to: CYB5R4 KO over parental	log2 fold change	0.44
Pam2CSK4	BV-2	Western blot, refers to: MARCO		concentration not given, unit not given	relative to: control	protein level	3.24 and 4.28 and 2.89
B3 (human RAB13)	CYB5R4 knockout human cells	PP4 interaction, 3xFLAG-PP4C IP-MS		concentration not given	relative to: CYB5R4 KO over parental	log2 fold change	-1.6
KEAFWDRCLSLINLMSSKMLQINA	Cyclin-dependent kinase 5, with p25 (CDK5, Homo sapiens, UniProt Q00535)	phosphotransferase activity, radiometric	peptide	concentration not given, 10% DMSO, with: histone substrate	relative to: p5-WT peptide	activity change	63%
Peginesatide	UT7/EPO	tyrosine phosphorylation, LC-MS/MS phosphoproteomics, GluC, refers to: GAB3 tyrosine 560		10 nM, 15 min, with: 10 U/mL EPO	relative to: vehicle	phosphorylation level	7.2 fold
QSDPITSSM	Jurkat expressing engineered TCR	NFAT-eGFP reporter, fluorescence microscopy	peptide	concentration not given, HLA-A*01:01 on EL4 cells		GFP-positive cells	0.602%
B4 (human matrin-3)	CYB5R4 knockout human cells	PP6 interaction, 3xFLAG-PP6C IP-MS		concentration not given	relative to: CYB5R4 KO over parental	log2 fold change	-1.48

For quick reference, copied from above:
Substance	tested on	assay	system	setting	scale	measurement	value
TCCTGAAGGGGCACCCTAGCTTGGTCCTATCGTCGTCAAGTCAATCGGTCC (dsDNA; 5'-amino-C6 primer)	SPT15 full length assumed	array	double-stranded DNA, one strand shown	TBP alone		Kd	0.00324 ± 0.00024 µM
AUAAAAAUU (ssRNA)	U2AF2	sequencing of bound RNA	RNA	motif only		Kd	12.9 µM
heparin	PC-12 cells	inhibitor		100 µg/mL, with: HBGF-2		neurite outgrowth	inhibited
